# Assay results from different studies.
# Every numbered part comes from another study and shows a few of its results, in no order. Positions count from the first letter of the parent shown.

# Series 1 — technique: DHFR PCA, deep sequencing; sample: yeast; added: (+)-ABA 2500 µM; reference: wild-type fitted maximum; direction: higher = stronger binding
# Target: ABI1, truncated, D143A, DHFR fusion (Arabidopsis thaliana)
# Notes: methotrexate growth selection, single substitutions
# Starting sequence: PYL1, truncated, DHFR fusion (Arabidopsis thaliana); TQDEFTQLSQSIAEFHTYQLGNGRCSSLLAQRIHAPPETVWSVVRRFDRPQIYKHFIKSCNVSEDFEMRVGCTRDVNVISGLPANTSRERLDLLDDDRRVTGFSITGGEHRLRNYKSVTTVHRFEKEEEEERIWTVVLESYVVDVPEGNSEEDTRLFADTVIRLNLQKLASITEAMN; partner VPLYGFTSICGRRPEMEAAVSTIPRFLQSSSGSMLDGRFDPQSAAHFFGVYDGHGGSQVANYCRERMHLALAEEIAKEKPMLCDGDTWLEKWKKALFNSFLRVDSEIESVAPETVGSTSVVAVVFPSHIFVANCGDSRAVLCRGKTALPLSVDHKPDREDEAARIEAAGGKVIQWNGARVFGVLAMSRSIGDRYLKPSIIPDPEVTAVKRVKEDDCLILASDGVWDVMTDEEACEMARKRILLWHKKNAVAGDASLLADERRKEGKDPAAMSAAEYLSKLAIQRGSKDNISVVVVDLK
Change,relative binding score
I79P,82.3%
N22H,104%
T1S,95.9%
D97E,97.7%
F15M,86.7%
I79E,84.8%
S171R,93.5%
V76Q,58.5%
S11N,93.2%
Y141Q,-5.52%
V62M,95.8%
S150P,66.9%
S80A,79.5%
D3E,89%

# Series 2 — technique: RNA Bind-n-Seq; molecule type: RNA; sample: in vitro; tested at: 200 nM; notes: whole 134-nt RNA, ends assumed; added: 150 mM KCl; reference: input library; direction: higher = stronger binding
# Target: Fragile X messenger ribonucleoprotein 1, C-terminal low-complexity region (Fmr1, Mus musculus, UniProt P35922)
Sequence,log2 enrichment
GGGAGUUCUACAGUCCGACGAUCCACAGACAACACGCACCCACAGAGACACAGAGGGAAGGGGUUGGGAUGGGGACAGGGUGCACAGCAGGGCGGGGUAGGACCCCAGCCCCUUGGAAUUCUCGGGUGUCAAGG,1.24
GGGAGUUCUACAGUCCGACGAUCAGUCCUGUGCUACACAUCGUAUGUACCGAAUCGGUUUUUGGUUUUUGGUUUUUGGGGAAAGUAUUAUGUUACGCCGUUCGGAUCUGCACUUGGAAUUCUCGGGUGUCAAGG,-0.581
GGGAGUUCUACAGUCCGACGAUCUGGCCCUGGUGGCAUGCGGGGAGGAAGAGGUGGACUCAUGGAUCGUGGUGGUCCCGGUGGAAUGUUCAGAGGUGGCCGUGGUGGAGACAGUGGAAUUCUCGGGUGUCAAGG,0.227
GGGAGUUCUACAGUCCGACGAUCAAGUCCUGUGCUACACAUCGUAUGUACCGAAUCGGAAAAAAAGGUGGAAAAAAAGGAAAGUAUUAUGUUACGCCGUUCGGAUCUGCACUUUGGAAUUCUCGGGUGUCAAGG,-1.05
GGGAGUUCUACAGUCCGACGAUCCACAGACAACACGCACCCACACAGACACAGAGGGAAGGGGUUGGGAUGGGGACAGGGUGCACAGCAGGUCGGGGUAGGACCCCAGCCCCUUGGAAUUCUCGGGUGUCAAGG,1.15
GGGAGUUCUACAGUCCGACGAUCUAACUUUAGAGGAGGAUCUGAUGGAUAUGGCAGUGGACGUGGAUUUGGGGAUGGCUAUAAUGGGUAUGGAGGAGGACCUGGAGGUGGCAGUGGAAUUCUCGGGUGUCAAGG,0.227
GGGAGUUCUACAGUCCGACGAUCAAGUCCUGUGCUACACAUCGUAUGUACCGAAUCGGGUUUUGGGUUUUGGGGUUUUGGAAAGUAUUAUGUUACGCCGUUCGGAUCUGCACUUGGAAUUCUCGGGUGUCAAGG,-0.0871
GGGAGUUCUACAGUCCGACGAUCCACAGACAACACGCACCCACACAAACACAGAGGGAAGGGGUUGGGAUGGGGACAGGGUGCACAGCAGGGCGGGGUAGGACCCCAGCCCCUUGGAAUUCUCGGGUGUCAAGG,1.22
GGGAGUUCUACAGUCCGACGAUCUCCUGUGCUACACAUCGUAUGUACCGAAUCGGGCCCCCCGGGCCCCCCGGCCCCCCGGGAAAGUAUUAUGUUACGCCGUUCGGAUCUGCAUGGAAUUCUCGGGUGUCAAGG,-0.62

# Series 3 — target: CCNA2, cyclin fold, Cln2 fusion (human); technique: yeast growth competition, sequencing; sample: yeast; notes: strong parent motif; reference: not given; direction: higher = stronger binding
# Starting sequence: PKMYT1 docking peptide (human); SFEPRNLLSLFED; partner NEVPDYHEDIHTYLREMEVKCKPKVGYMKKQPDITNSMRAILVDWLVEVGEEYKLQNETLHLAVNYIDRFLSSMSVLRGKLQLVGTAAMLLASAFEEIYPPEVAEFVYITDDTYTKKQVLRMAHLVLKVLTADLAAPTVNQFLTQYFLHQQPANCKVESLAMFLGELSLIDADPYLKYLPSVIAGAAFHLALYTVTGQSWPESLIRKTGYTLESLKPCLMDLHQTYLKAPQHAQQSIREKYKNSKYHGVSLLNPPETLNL
Change,normalised enrichment score
L7K,-0.682
S1H,3.52
F2I,0.828
S1M,4.42
P4W,0.433
L10Y,2.08
F11E,-0.812
R5D,-0.239
E3P,2
L10Q,2.79
D13N,2.55
F2A,0.412
D13H,1.81
S9V,2.38
P4M,-0.643
D13C,2.54
E12L,1.06

# Series 4 — target: BATF3, bZIP domain (human); technique: DHFR protein complementation; sample: yeast; reference: wild-type JUN-FOS pair; direction: higher = stronger binding
# Notes: single substitutions, most at no-binding floor
# Starting sequence: JUN, bZIP domain (human); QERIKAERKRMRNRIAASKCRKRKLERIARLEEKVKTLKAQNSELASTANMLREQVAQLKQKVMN; partner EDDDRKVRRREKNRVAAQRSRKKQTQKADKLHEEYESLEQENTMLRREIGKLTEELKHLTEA
Change,binding fitness [natural log]
K34A,0.268
L38D,-1.24
A49C,0.167
L31W,0.226
K39H,0.173
R53W,-0.0508
L59H,0.147
L59C,0.156
A57N,0.151
I28D,0.206
R53C,-0.0877
N42R,0.134
A40G,0.179
I28C,0.156
T37V,0.209
Q41P,-0.948
K39A,0.109
Q41V,0.167
E54A,0.124
K34M,0.223
K39R,0.287
I28H,0.299

# Series 5 — technique: protein-binding microarray; molecule type: double-stranded DNA, one strand shown; sample: in vitro; tested at: 2200 nM top; notes: 60-bp whole probe; added: salmon DNA 0.4 mg/ml; reference: random background probes; direction: higher = stronger binding; all sequences stand within: GCCTAGCAC … GTCTTGATTCGCTTGACGCTGCTG
# Target: Interferon regulatory factor 7, full length, phosphomimetic (IRF7, Homo sapiens, UniProt Q92985, residues 1-503, S471D/S472D/S475D/S476D/S477D/S483D/S484D/S487D)
# UniProt Q92985, sequence (whole entry, unmodified, looked up): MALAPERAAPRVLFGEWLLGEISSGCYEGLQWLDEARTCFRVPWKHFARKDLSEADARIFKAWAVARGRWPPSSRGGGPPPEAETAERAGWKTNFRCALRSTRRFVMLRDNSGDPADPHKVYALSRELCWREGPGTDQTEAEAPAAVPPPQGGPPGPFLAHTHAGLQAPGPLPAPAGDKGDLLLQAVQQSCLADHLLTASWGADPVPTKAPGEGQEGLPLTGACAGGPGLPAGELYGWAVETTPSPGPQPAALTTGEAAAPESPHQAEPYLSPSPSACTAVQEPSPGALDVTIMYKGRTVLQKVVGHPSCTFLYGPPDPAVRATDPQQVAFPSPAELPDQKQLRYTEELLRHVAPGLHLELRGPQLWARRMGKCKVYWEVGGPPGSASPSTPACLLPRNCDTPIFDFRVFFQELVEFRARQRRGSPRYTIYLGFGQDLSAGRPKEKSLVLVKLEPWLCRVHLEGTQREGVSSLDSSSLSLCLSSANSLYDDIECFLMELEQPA
Sequence,fitted relative affinity
TTAGATTTCATTTTCGATTAGTGCTAG,8.59 z-score
GATGGGCTACCTCTCTTAGAGTGCTAG,-0.763 z-score
AGAAATTTCTTTCTAATTCAGTGCTAG,0.698 z-score
TTACATCTCAGACTGGATTAGTGCTAG,0.705 z-score
TTCGGTTTCCTTTTCCTTTAGTGCTAG,9.34 z-score
GACGGACTGAACTTTCGGGACGTGCTA,2.9 z-score
GACGATATCAGCCTGGAGACGTGCTAG,0.167 z-score
TCAACTCTCTCCATGTGACTGTGCTAG,1.39 z-score
TTAGATCTCAGACTGGTTTAGTGCTAG,0.111 z-score
TCAAAATTGTCTCTGTCACTGTGCTAG,0.227 z-score
TCAGGCCTCTTCATTCATACTGTGCTA,0.424 z-score
TCACATCTCTGTCCGTGACTGTGCTAG,2.27 z-score
TTAGGACTAGGGTATCGGTTAGTGCTA,-0.443 z-score
GACGAGCTCAGTTTCGAGACGTGCTAG,3.26 z-score
GACGGTATCGACACTGGGTACGTGCTA,-0.102 z-score
GCACGGCTCGTTATCCTATAGTGCTAG,0.774 z-score
TCACCTTTCTCTTGGAGACTGTGCTAG,2.22 z-score
TCAGGGCTCTCTTCTGCTACTGTGCTA,-0.0359 z-score
GACGATCTCAGACTGGTGACGTGCTAG,-0.0401 z-score
